Measurements collected from several papers.
Lines come from different studies, so protocols differ. Several values in a cell are separate wells, animals, samples, runs or records. ± marks the error that the study gave.

SMILES | assay | test system | setting | terminal half-life
C=CC(=O)NC1CCN(c2ncc3ncnc(Nc4ccc(Oc5ccc6c(c5)ncn6C)c(C)c4)c3n2)CC1 | refers to: total radioactivity | healthy male volunteers, plasma | intravenous, 100 µg, 14C microtracer, geometric mean | 127 h
COc1nnc2ccc(N3CCC(c4ccc(OCCN5CCN(C)C(=O)[C@H]5C)cc4)CC3)nn12 |  | patients, plasma | oral, 15 mg twice daily, multiple dose, monotherapy | 1.89 h
CS(=O)(=O)c1ccc([C@@H](O)[C@@H](CF)NC(=O)C(Cl)Cl)cc1 |  | Arbor Acres chickens, plasma | oral, 20 mg/kg, together with: quercetin 40 mg/kg pretreatment | 2.33 ± 0.28 h
COC(=O)c1ccc2c(c1)NC(=O)/C2=C(\Nc1ccc(N(C)C(=O)CN2CCN(C)CC2)cc1)c1ccccc1 |  | healthy volunteers, plasma | oral, 150 mg, together with: pirfenidone | 13.7 h
O=C(c1cccnc1-c1ccncc1)N1CCC(O)(Cc2ccccc2)CC1 |  | healthy Japanese adults, plasma | oral, 200 mg single dose | 5.89 h
C=CC[C@@H]1/C=C(\C)C[C@H](C)C[C@H](OC)[C@H]2O[C@@](O)(C(=O)C(=O)N3CCCC[C@H]3C(=O)O[C@H](/C(C)=C/[C@@H]3CC[C@@H](O)[C@H](OC)C3)[C@H](C)[C@@H](O)CC1=O)[C@H](C)C[C@@H]2OC |  | healthy adults, whole blood | oral, geometric mean | 33.3 h and 33.6 h
C#C[C@]1(O)CC[C@H]2[C@@H]3CCC4=CC(=O)CC[C@@H]4[C@H]3CC[C@@]21C | radioimmunoassay | HIV-infected women on protease inhibitor therapy, serum | oral, 0.35 mg, geometric mean | 22.5 h
CC(=O)Nc1ccc(C[C@H](NC(=O)[C@H](CO)NC(=O)[C@@H](Cc2cccnc2)NC(=O)[C@@H](Cc2ccc(Cl)cc2)NC(=O)[C@@H](Cc2ccc3ccccc3c2)NC(C)=O)C(=O)N[C@H](Cc2ccc(NC(C)=O)cc2)C(=O)N[C@@H](CC(C)C)C(=O)N[C@@H](CCCCNC(C)C)C(=O)N2CCC[C@H]2C(=O)N[C@H](C)C(N)=O)cc1 |  | healthy men, fasted, serum | oral, 10 mg single dose | 7.4 ± 3.1 h
